Results of several laboratories.
Every numbered part comes from another study and shows a few of its results, in no order. Changes are numbered by the printed parent chain.

Series 1 — target: CCND1, cyclin fold, Cln2 fusion (human); method: yeast growth competition, sequencing; medium: yeast; notes: weak parent motif; baseline: not given; reading: higher = stronger binding
Parent: ANKRD17 docking peptide (human); PSVRRQLFVTVVK
Variant	normalised enrichment score
PSVRRQLFVTVAK [V12A]	0.553
PSVARQLFVTVVK [R4A]	0.84
PSARRQLFVTVVK [V3A]	0.924
PSVRRQLFATVVK [V9A]	0.248
PSVRRQAFVTVVK [L7A]	0.53
PSVRRQLFVTVVA [K13A]	-0.26
PSVRKQLFVTVVK [R5K]	-0.0285

Series 2 — method: protein-binding microarray; molecule type: double-stranded DNA, one strand shown; medium: in vitro; tested at: 250 nM; notes: 60-bp whole probe; added: salmon DNA 0.4 mg/ml; baseline: random background probes; reading: higher = stronger binding; shared flanks, not repeated: GCCTAGCAC … GTCTTGATTCGCTTGACGCTGCTG
Target: Interferon regulatory factor 5, full length, phosphomimetic (IRF5, Homo sapiens, UniProt Q13568-2, residues 1-514, K96S/S451D/S453D/S456D/S462D)
Strand	log fluorescence
GACGGTCTGGGGACTGGGGACGTGCTA	-0.485 z-score
TCCTGCTGTACCCCTAGGGCGTGCTAG	-0.433 z-score
GACGGCCTCGGTATCGGGACGTGCTAG	0.551 z-score
TTAGGTCTCCTCCTCCTTTAGTGCTAG	-0.165 z-score
TTAGGGTCCCTTTTCCTTTAGTGCTAG	-0.0206 z-score
GACGGCCTGGGTATCGGGACGTGCTAG	0.0044 z-score
TTAGGTTTCGGGTATCGTTTAGTGCTA	9.23 z-score
TTAGGTATCCTTATCCATTAGTGCTAG	0.365 z-score
CCCGCTTTTTTTTTTTTTTTGTGCTAG	0.999 z-score
TTAGGTATCCTTATCCTTTAGTGCTAG	0.267 z-score
TCATGTTCCCTCATCAGACTGTGCTAG	0.281 z-score
TCATTTTGCCCTATTTAACTGTGCTAG	0.798 z-score
ATGTGTTTAAGAATGTTTTTGTGCTAG	0.552 z-score
AATGAGGCACTGAGAGCAGAGTGCTAG	-0.458 z-score
GGTGCTCTGCAGCTCAGGCAGTGCTAG	-0.645 z-score
TTAGGTTTCGGACTGGGATAGTGCTAG	5.32 z-score
TCAAGGCTGTGTTTTCACACTGTGCTA	-0.126 z-score
TCACCCTTGCTTTCCAAACTGTGCTAG	0.327 z-score
GACGGACTGCTTATCGTGACGTGCTAG	-0.313 z-score

Series 3 — target: CREB3L3, bZIP domain (human); method: DHFR protein complementation; medium: yeast; baseline: wild-type JUN-FOS pair; reading: higher = stronger binding
Notes: single substitutions, most at no-binding floor
Parent: JUN, bZIP domain (human); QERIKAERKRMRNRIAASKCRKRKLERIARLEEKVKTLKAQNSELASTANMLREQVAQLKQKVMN; partner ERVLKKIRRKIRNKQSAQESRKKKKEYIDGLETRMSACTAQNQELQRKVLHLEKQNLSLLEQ
Variant	binding fitness [natural log]
A29S	-1.49
E33F	-1.58
A57L	-1.5
M51L	-1.47
N42M	-1.45
E44M	-1.3
E44P	-1.47
R53A	-1.45
L52H	-1.45
K34M	-1.43
L38E	-1.48
L52K	-1.44
R30G	-1.41
I28R	-1.44
E32I	-1.55

Series 4 — method: universal PBM; molecule type: double-stranded DNA, one strand shown; medium: in vitro; tested at: not given; reading: higher = stronger binding
Target: Sal-like protein 4, full length isoform B (SALL4, Homo sapiens, UniProt Q9UJQ4-2, residues 1-616)
Notes: 8-mer, flanks averaged, mean of replicates
Residues (chain): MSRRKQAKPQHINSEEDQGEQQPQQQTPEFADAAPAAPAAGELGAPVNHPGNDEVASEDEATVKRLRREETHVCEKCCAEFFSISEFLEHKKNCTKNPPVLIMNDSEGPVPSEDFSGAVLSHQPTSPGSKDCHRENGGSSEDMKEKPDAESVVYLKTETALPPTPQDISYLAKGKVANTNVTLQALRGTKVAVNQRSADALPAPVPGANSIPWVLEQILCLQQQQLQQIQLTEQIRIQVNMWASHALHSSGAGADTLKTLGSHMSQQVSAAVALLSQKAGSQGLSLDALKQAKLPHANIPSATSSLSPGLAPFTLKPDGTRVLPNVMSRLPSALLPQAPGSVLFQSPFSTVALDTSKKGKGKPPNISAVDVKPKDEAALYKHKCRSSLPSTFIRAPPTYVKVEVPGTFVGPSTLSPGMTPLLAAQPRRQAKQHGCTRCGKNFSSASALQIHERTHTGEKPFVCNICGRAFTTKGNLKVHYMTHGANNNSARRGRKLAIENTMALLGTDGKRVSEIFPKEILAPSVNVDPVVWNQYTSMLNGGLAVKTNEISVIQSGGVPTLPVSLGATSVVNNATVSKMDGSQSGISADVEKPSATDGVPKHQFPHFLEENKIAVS
Strand	E-score
CCAATGTA	0.031
ACGCCGGG	-0.27
ACCCACTC	-0.0468
GACATCCA	0.00054
ACCCGAAC	-0.0676
ACTCGACC	-0.222
GGCGAGCC	-0.327
GGCGGCTA	-0.187
CAAGAAAG	0.0696
GTACTACA	0.21
AGCCGGAC	-0.248
GGCCTCCA	-0.254
AGGCTCCC	-0.365
CTTAGAGA	-0.129
GGGACCCC	-0.316
CGTCCCTC	-0.242
AACAAGTA	0.225

For quick reference, copied from above (series 2):
Strand	log fluorescence
TCACCCTTGCTTTCCAAACTGTGCTAG	0.327 z-score
TTAGGTTTCGGGTATCGTTTAGTGCTA	9.23 z-score
AATGAGGCACTGAGAGCAGAGTGCTAG	-0.458 z-score
TTAGGTTTCGGACTGGGATAGTGCTAG	5.32 z-score
GACGGTCTGGGGACTGGGGACGTGCTA	-0.485 z-score
TTAGGTATCCTTATCCATTAGTGCTAG	0.365 z-score
TCAAGGCTGTGTTTTCACACTGTGCTA	-0.126 z-score
